Measured values collected from several papers.
Compare with care: the assays were run in different laboratories. “And” joins repeats or separate records; there may be more than shown. Numbers after ± are the reported error.

O=C(/C=C/C=C/C=C/C1CCCCC1)NC1=C[C@@](O)(/C=C/C=C/C=C/C(=O)NC2=C(O)CCC2=O)[C@@H]2O[C@@H]2C1=O has a GI50 of greater than 30 µM (snu81; cell growth, inhibitor, CellTiter-Glo luminescence; 78 h; reference: day 0 cell count).
Cn1cc(-c2ccc(-c3cncc(Cl)c3N3CCC4(CCNC4=O)CC3)cc2)cn1: “log2 fold change” -2.26 (COLO 205; gene expression, microarray, refers to: PDK4 mRNA; concentration not given, 2 h; reference: untreated cells).
CCn1cc(-c2cc(Cn3ccoc3=N)cc3c2CCN([C@@H](C)c2cc(OC)ccn2)C3=O)c(C(F)(F)F)n1 has an EC50 of greater than 30 µM (MSTO-211H; cell growth, inhibitor; 120 h).
With CSc1cc(Oc2ccnc3[nH]c(=O)cnc23)ccc1NC(=O)Nc1cc(C(C)(C)C)nn1-c1ccccc1 the phospho ratio was 0.6 (patient-derived cell line clone B; RPPA, refers to: phosphorylated SAPK/JNK; human; 1 µM, 4 h; reference: DMSO).
Cc1cc(C2CCCCC2)n(O)c(=O)c1.NCCO gave an inhibition of 87% (BT-16; cell viability, MTT; 10 µM, 72 h).
Under “log2 fold change”, Cc1cc(Nc2ncc(Cl)c(Nc3ccccc3S(=O)(=O)C(C)C)n2)c(OC(C)C)cc1C1CCNCC1 is recorded as -2.17 (CLB-BAR; phosphoproteomics LC-MS/MS, refers to: PTPN11 phosphorylation; 200 nM, 60 min; reference: untreated).
Nc1ncnc2c1ncn2[C@@H]1O[C@H](CO)[C@@H](O)[C@H]1O has a viability of 82.3 a.u. and 76.8 a.u. and 84.2 a.u. (unstimulated human T cells; 3.16 µM, 72 h; higher = more viable cells).
CC[C@@H]1C(=O)N(C)c2cnc(Nc3ccc(C(=O)N[C@H]4CC[C@H](N5CCN(CC6CC6)CC5)CC4)cc3OC)nc2N1C(C)C gave an inhibition of 88.4% (BT-16; cell viability, MTT; 10 µM, 72 h).
For COc1cnc2cccc(N3CCc4c(cc(Cn5ccnc5C)cc4-c4cn(C)nc4C(F)(F)F)C3=O)c2c1, the EC50 was greater than 30 µM (Calu-3; cell growth, inhibitor; 120 h).
Cn1cc(Nc2nccc(-c3ccc4c(c3)CN(C3COC3)CC[C@H]4NC(=O)c3cn(C(C)(C)C)nn3)n2)cn1 — result for “pathway activation z-score”: 0.832 (mouse splenic B cells; refers to: apelin Adipocyte signalling pathway; 30 mg/kg, IgD-activated in vivo; reference: vehicle, direction not given).
CN1CCN(c2ccc(C(=O)Nc3n[nH]c4ccc(Cc5cc(F)cc(F)c5)cc34)c(NC3CCOCC3)c2)CC1 has an inhibition of 86.3% (BT-16; cell viability, MTT; 10 µM, 72 h).
CCOc1cc(-c2nncn2C)ccc1Nc1ncc2cc(C)nc(NCC(C)(C)C)c2n1 gave a GI50 of 0.087 µM (CAL-51; cell growth; 72 h).
For COc1cccc2c1c(O)c(C(=O)N(C)c1ccc(C(F)(F)F)cc1)c(=O)n2C, mRNA level read “decreased” (mouse bone marrow-derived macrophages; qPCR, refers to: Arg-1; concentration not given, together with: IL-4).
For CN(C)c1ccc(C(=O)NCCCCCCC(=O)NO)cc1, the inhibition was 90.4% (BT-16; cell viability, MTT; 10 µM, 72 h).
Under “normalized enrichment score”, CCc1cnc(N2CCC(c3nc(COc4ccc(-n5cnnn5)cc4)cs3)CC2)nc1 is recorded as 1.22 (HEK-293T; RNA-seq GSEA, refers to: HALLMARK_PROTEIN_SECRETION; concentration not given; direction not given).
For Cc1[nH]c2ccccc2c1CCNCc1ccc(/C=C/C(=O)NO)cc1, “late apoptotic cells” read 2.6 ± 0.5% (C13; annexin V/PI flow cytometry; concentration not given, 48 h; reference: control subtracted).
Under “G1 phase cells”, COc1cc([C@@H]2c3cc4c(cc3[C@@H](O[C@@H]3O[C@@H]5CO[C@@H](C)O[C@H]5[C@H](O)[C@H]3O)[C@H]3COC(=O)[C@H]23)OCO4)cc(OC)c1O is recorded as 36.5 ± 17.6% (HepG2 spheroids; flow cytometry; 1.7 µM, 24 h).
For FC(F)(F)c1nc2c(-c3ccc(Cl)cc3)ccnc2[nH]1, the Emax was 6 to 22% (L6 myoblasts; oxygen consumption rate, Seahorse XF; reference: BAM15 maximal respiration).
Under “S phase cells”, Cc1cc(NS(=O)(=O)c2ccc(NC(=O)/C(C#N)=C/c3ccc(N4CCCCC4)cc3)cc2)no1 is recorded as 24.9% (HCT-116; propidium iodide flow cytometry; IC50, 48 h).
The viability of Cc1cccc(-c2[nH]c(CNc3ccccc3F)nc2-c2ccc3ncnn3c2)n1 is reported as 61% and 63% and 55% (MM1.S pomalidomide-resistant; XTT; 1.25 µM).
